Measured values of several laboratories.
Each line is one published result; not all experiments were run side by side. Positions count from the first letter of the parent shown. ± marks the error that the study gave.
Atg9 residues 1-255: Atg9 fragment (Saccharomyces cerevisiae)
B1: enzyme (Streptomyces parvus, UniProt A0A7K3RVR3); chain MYVPEQYRPRDASWTLELIRSNPLALLVTNGPQHPWATHVPVLFAEEPDGPEGPDGLDATGDDLVGRRLLGHLNLMNPHWEALAGAGHALLVFQGPGSYVSPTVYETAPAAPTWDFTSVHVHGALRLIDDPDDLRKIVQATVRAYEREVGTDWDMSESLEYFERLLPGVRGFEIKIESVDSMFKLSQEQLPETVTKVIDSFRRSDGGRRQELATMIERAASD
P1: Atg23 dimer, full-length; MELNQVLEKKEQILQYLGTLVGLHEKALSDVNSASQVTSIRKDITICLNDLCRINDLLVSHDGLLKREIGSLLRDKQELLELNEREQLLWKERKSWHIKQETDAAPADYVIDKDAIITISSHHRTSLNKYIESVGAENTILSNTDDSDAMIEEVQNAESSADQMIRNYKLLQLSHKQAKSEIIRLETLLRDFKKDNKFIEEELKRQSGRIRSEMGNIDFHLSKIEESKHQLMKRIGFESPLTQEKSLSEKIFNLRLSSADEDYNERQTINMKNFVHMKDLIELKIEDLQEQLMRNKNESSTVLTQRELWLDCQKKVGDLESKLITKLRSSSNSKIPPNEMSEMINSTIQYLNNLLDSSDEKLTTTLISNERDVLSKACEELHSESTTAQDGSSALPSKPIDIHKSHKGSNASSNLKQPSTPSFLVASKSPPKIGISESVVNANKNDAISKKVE
B2: enzyme (Cannabis sativa, UniProt A0ABL6VS23); chain MARVELVFIPAPGIGHLVSTLEFAKRLIHYDHRLFITVLYMKFPFKSHLDAYIDSIVASLSLVHRIKLLHLPLVDSPPMELLKSIENFIYLYMESLVPHVRKALTDIVSSNSNYSQGDVVLVLDFFCMPMMDVANELGLPSYMFMTSNLGFLSLMFYLATRHNQISSELEESDAPLRLQGFQNPVPSSVLPTAAFCKDGGYSAYVKLAQRFRETKGIIVNSFEELESYSFSSMNDGAETPPIYMVGPVLDLNGQPHPSMDQVQNDKILKWLDEQPHSSVVFLCFGSMGRFGASQLREIASGLKRSGHRFLWSVRVQQPTTIDEILPEGFLEQIGSKGMICNEWAPQVKVLAHSAVGGFLSHCGWNSILESLWYGVPVATWPIYAEQQLNAFRMVREFGLAVDLRLDYKDRGDDHIVSAEEIETAVKHLMEGDSEVRKKVKEMSEMARKSVEEGGSSFTAIGKLINSIIGSNYY
B3: SIRT5 Y102A (Homo sapiens, UniProt Q9NXA8); chain ARPSSSMADFRKFFAKAKHIVIISGAGVSAESGVPTFRGAGGYWRKWQAQDLATPLAFAHNPSRVWEFAHYRREVMGSKEPNAGHRAIAECETRLGKQGRRVVVITQNIDELHRKAGTKNLLEIHGSLFKTRCTSCGVVAENYKSPICPALSGKGAPEPGTQDASIPVEKLPRCEEAGCGGLLRPHVVWFGENLDPAILEEVDRELAHCDLCLVVGTSSVVYPAAMFAPQVAARGVPVAEFNTETTPATNRFRFHFQGPCGTTLPEALA
B4: fabH (Escherichia coli, UniProt P0A6R0); chain MYTKIIGTGSYLPEQVRTNADLEKMVDTSDEWIVTRTGIRERHIAAPNETVSTMGFEAATRAIEMAGIEKDQIGLIVVATTSATHAFPSAACQIQSMLGIKGCPAFDVAAACAGFTYALSVADQYVKSGAVKYALVVGSDVLARTCDPTDRGTIIIFGDGAGAAVLAASEEPGIISTHLHADGSYGELLTLPNADRVNPENSIHLTMAGNEVFKVAVTELAHIVDETLAANNLDRSQLDWLVPHQANLRIISATAKKLGMSMDNVVVTLDRHGNTSAASVPCALDEAVRDGRIKPGQLVLLEAFGGGFTWGSALVRF
B5: CASP10 (Homo sapiens, UniProt Q92851); chain 1 VKTFLEALPQESWQNKHAGSNGNRATNGAPSLVSRGMQGASANTLNSETSTKRAAVYRMNRNHRGLCVIVNNHSFTSLKDRQGTHKDAEILSHVFQWLGFTVHIHNNVTKVEMEMVLQKQKCNPAHADGDCFVFCILTHGRFGAVYSSDEALIPIREIMSHFTALQCPRLAEKPKLFFIQACQGEEIQPSVSIEAD; chain 2 ALNPEQAPTSLQDSIPAEADFLLGLATVPGYVSFRHVEEGSWYIQSLCNHLKKLVPRMLKFLEKTMEIRGRKRTVWGAKQISATSLPTAISAQTPRPPMRRWSSVS
B6: SIRT5 W222A (Homo sapiens, UniProt Q9NXA8); chain ARPSSSMADFRKFFAKAKHIVIISGAGVSAESGVPTFRGAGGYWRKWQAQDLATPLAFAHNPSRVWEFYHYRREVMGSKEPNAGHRAIAECETRLGKQGRRVVVITQNIDELHRKAGTKNLLEIHGSLFKTRCTSCGVVAENYKSPICPALSGKGAPEPGTQDASIPVEKLPRCEEAGCGGLLRPHVVAFGENLDPAILEEVDRELAHCDLCLVVGTSSVVYPAAMFAPQVAARGVPVAEFNTETTPATNRFRFHFQGPCGTTLPEALA
B7: UGT76G1 (Stevia rebaudiana, UniProt Q6VAB4); chain MENKTETTVRRRRRIILFPVPFQGHINPILQLANVLYSKGFSITIFHTNFNKPKTSNYPHFTFRFILDNDPQDERISNLPTHGPLAGMRIPIINEHGADELRRELELLMLASEEDEEVSCLITDALWYFAQSVADSLNLRRLVLMTSSLFNFHAHVSLPQFDELGYLDPDDKTRLEEQASGFPMLKVKDIKSAYSNWQILKEILGKMIKQTKASSGVIWNSFKELEESELETVIREIPAPSFLIPLPKHLTASSSSLLDHDRTVFQWLDQQPPSSVLYVSFGSTSEVDEKDFLEIARGLVDSKQSFLWVVRPGFVKGSTWVEPLPDGFLGERGRIVKWVPQQEVLAHGAIGAFWTHSGWNSTLESVCEGVPMIFSDFGLDQPLNARYMSDVLKVGVYLENGWERGEIANAIRRVMVDEEGEYIRQNARVLKQKADVSLMKGGSSYESLESLVSYISSL
B8: bioZ (Agrobacterium fabrum, UniProt Q7CTU0); chain MQTRSSRMAGFGHAVPARCVDNAEIEASLGLEAGWIERRTGIRSRYWAEAGDTLSGLAERAGRMALEDAKINADDIALTLLATSTPDHLLPPSAPLLAHRLGLTRSGAIDLAGACSGFLYALTLADGFVRTYGRAVLVVAANILSRRINPAERASAVLFADAAGAVVLTPCPEVKRGVLSADLVADGSGYDLIQIAAGGSSQPFSAGMIAEDALMTMRDGREVFSRAVALMTNTSQRVLHEAELTAADISRFVPHQANARMSDAVCGNLGIEREKTVRTIGSFGNSSAATIPLSLSITNAERPLAGGETLLLTAAGAGMTGGAVVYRV
UniProt Q9LFJ8, sequence (whole entry, looked up): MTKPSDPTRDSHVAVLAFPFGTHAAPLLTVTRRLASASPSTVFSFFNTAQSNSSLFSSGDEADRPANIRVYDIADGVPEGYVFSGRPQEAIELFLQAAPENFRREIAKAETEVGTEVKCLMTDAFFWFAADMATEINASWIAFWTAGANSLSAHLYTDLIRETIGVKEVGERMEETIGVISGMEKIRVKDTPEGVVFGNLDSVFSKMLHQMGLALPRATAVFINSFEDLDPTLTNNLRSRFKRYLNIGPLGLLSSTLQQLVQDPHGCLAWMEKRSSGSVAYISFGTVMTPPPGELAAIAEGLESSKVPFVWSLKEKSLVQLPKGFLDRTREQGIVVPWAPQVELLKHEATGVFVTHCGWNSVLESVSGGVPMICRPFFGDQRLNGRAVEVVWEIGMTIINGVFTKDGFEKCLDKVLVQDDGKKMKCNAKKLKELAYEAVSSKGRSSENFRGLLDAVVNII

Substance | tested on | assay | setting | endpoint | result
B1 (enzyme) | N[C@@H](CCCNO)C(=O)O | steady-state kinetics | pH 8, 25 °C, added: heme | kcat | 7.52 s⁻¹
P1 A377E | Atg9 residues 1-255 | BLI | 8 µM, steady state, read off a plot | response | 0.016 nm
B2 (enzyme) | O=c1ccn([C@@H]2O[C@H](CO[P@@](=O)(O)O[P@@](=O)(O)O[C@H]3O[C@H](CO)[C@@H](O)[C@H](O)[C@H]3O)[C@@H](O)[C@H]2O)c(=O)[nH]1 | steady-state kinetics | 30 °C | kcat | 0.00883 s⁻¹
B3 (SIRT5 Y102A) | CSCC[C@H](NC(=O)[C@H](CC(C)C)NC(=O)[C@H](CCCCNC(C)=O)NC(=O)[C@H](CCCCN)NC(=O)[C@H](Cc1c[nH]cn1)NC(=O)[C@H](CCCNC(=N)N)NC(=O)[C@H](CO)NC(=O)[C@@H](NC(=O)[C@H](CO)NC(=O)[C@H](CCC(N)=O)NC(=O)CNC(=O)[C@H](CCCCN)NC(=O)[C@@H](N)CCCCN)[C@@H](C)O)C(=O)N[C@@H](Cc1ccccc1)C(=O)N[C@@H](CCCCN)C(=O)N[C@H](C(=O)N[C@@H](CCC(=O)O)C(=O)NCC(=O)O)[C@@H](C)O | steady-state kinetics | pH 7.5, 37 °C, added: saturating NAD+ | kcat | 0.0367 ± 0.0049 s⁻¹
B4 (fabH) | CC(=O)SCCNC(=O)CCNC(=O)[C@H](O)C(C)(C)COP(=O)(O)OP(=O)(O)OC[C@H]1O[C@@H](n2cnc3c(N)ncnc32)[C@H](O)[C@@H]1OP(=O)(O)O | steady-state kinetics | added: malonyl-ACP | kcat | 1.66 ± 0.107 s⁻¹
P1 L323R | Atg9 residues 1-255 | BLI | 8 µM, steady state, read off a plot | response | 0.04 nm
B5 (CASP10) | CC[C@H](C)[C@H](NC(C)=O)C(=O)N[C@@H](CCC(=O)O)C(=O)N1CCC[C@H]1C(=O)N[C@@H](CC(=O)O)C(=O)Nc1ccc2c(C)cc(=O)oc2c1 | steady-state kinetics | 37 °C | kcat | 0.096 s⁻¹
enzyme (Arabidopsis thaliana, UniProt Q9LFJ8) | Oc1cc(O)c2cc(O)c(-c3ccc(O)c(O)c3)[o+]c2c1 | steady-state kinetics | pH 7.5, 30 °C | kcat | 0.25 s⁻¹
B6 (SIRT5 W222A) | CSCC[C@H](NC(=O)[C@H](CC(C)C)NC(=O)[C@H](CCCCNC(C)=O)NC(=O)[C@H](CCCCN)NC(=O)[C@H](Cc1c[nH]cn1)NC(=O)[C@H](CCCNC(=N)N)NC(=O)[C@H](CO)NC(=O)[C@@H](NC(=O)[C@H](CO)NC(=O)[C@H](CCC(N)=O)NC(=O)CNC(=O)[C@H](CCCCN)NC(=O)[C@@H](N)CCCCN)[C@@H](C)O)C(=O)N[C@@H](Cc1ccccc1)C(=O)N[C@@H](CCCCN)C(=O)N[C@H](C(=O)N[C@@H](CCC(=O)O)C(=O)NCC(=O)O)[C@@H](C)O | steady-state kinetics | pH 7.5, 37 °C, added: saturating NAD+ | kcat | 0.0215 ± 0.0047 s⁻¹
B7 (UGT76G1) | C=C1C[C@@]23CC[C@H]4[C@@](C)(CCC[C@@]4(C)C(=O)O[C@@H]4O[C@H](CO)[C@@H](O)[C@H](O)[C@H]4O[C@@H]4O[C@H](CO)[C@@H](O)[C@H](O)[C@H]4O)[C@@H]2CC[C@]1(O[C@@H]1O[C@H](CO)[C@@H](O)[C@H](O)[C@H]1O[C@@H]1O[C@H](CO)[C@@H](O)[C@H](O)[C@H]1O)C3 | steady-state kinetics | pH 7.25, 40 °C | kcat | 1.74 ± 0.052 s⁻¹
USP16 ZnF-UBP N85Y (Homo sapiens) | ubiquitin mature (UniProt P0CG48) | SPR |  | Kd | 2 µM
B8 (bioZ) | CC(C)(COP(=O)(O)OP(=O)(O)OC[C@H]1O[C@@H](n2cnc3c(N)ncnc32)[C@H](O)[C@@H]1OP(=O)(O)O)[C@@H](O)C(=O)NCCC(=O)NCCSC(=O)CCCC(=O)O | steady-state kinetics |  | kcat | 2250 ± 127 s⁻¹
enzyme (Acinetobacter baumannii, UniProt V5V8V7) | Nc1nc2c(ncn2[C@H]2C[C@H](OP(=O)(O)OP(=O)(O)O)[C@@H](COP(=O)(O)OP(=O)(O)O)O2)c(=O)[nH]1 | steady-state kinetics | pH 7.5, 30 °C | kcat | 0.00883 s⁻¹
rCR (Lodderomyces parapsilosis, UniProt A1X808) | COC(=O)CC(C)=O | steady-state kinetics | pH 7, 30 °C, added: NADH 0.5 mM | kcat | 10.2 ± 0.64 s⁻¹

A few entries again:
Substance | tested on | assay | setting | endpoint | result
B7 (UGT76G1) | C=C1C[C@@]23CC[C@H]4[C@@](C)(CCC[C@@]4(C)C(=O)O[C@@H]4O[C@H](CO)[C@@H](O)[C@H](O)[C@H]4O[C@@H]4O[C@H](CO)[C@@H](O)[C@H](O)[C@H]4O)[C@@H]2CC[C@]1(O[C@@H]1O[C@H](CO)[C@@H](O)[C@H](O)[C@H]1O[C@@H]1O[C@H](CO)[C@@H](O)[C@H](O)[C@H]1O)C3 | steady-state kinetics | pH 7.25, 40 °C | kcat | 1.74 ± 0.052 s⁻¹
USP16 ZnF-UBP N85Y (Homo sapiens) | ubiquitin mature (UniProt P0CG48) | SPR |  | Kd | 2 µM
